Experimental data of several laboratories.
Parts stem from different laboratories: compare values within a part only. Substitutions count along the parent as printed.

Study 1
Substance: PhoQ, residues 284 288 289 292 302 303 TYGVAM
Method: Sort-seq
Refers to: YFP reporter
Sample: E. coli
Setting: PhoQ-PhoP variant library
With: 10 µM Mg2+
Reference: high Mg2+ state
Direction: higher = stronger signaling
| target | fold induction |
| --- | --- |
| PhoP, residues 12 14 15 18 19 TPWTL (Escherichia coli, UniProt P23836) | 13.1 |
| PhoP, residues 12 14 15 18 19 NFFVT (Escherichia coli, UniProt P23836) | 8.31 |
| PhoP, residues 12 14 15 18 19 LHHYF (Escherichia coli, UniProt P23836) | 33.5 |

Study 2
Target: ABI1, truncated, D143A, DHFR fusion (Arabidopsis thaliana)
Method: DHFR PCA, deep sequencing
Sample: yeast
Setting: methotrexate growth selection, single substitutions
With: (+)-ABA 200 µM
Reference: wild-type fitted maximum
Direction: higher = stronger binding
Starting sequence: PYL1, truncated, DHFR fusion (Arabidopsis thaliana); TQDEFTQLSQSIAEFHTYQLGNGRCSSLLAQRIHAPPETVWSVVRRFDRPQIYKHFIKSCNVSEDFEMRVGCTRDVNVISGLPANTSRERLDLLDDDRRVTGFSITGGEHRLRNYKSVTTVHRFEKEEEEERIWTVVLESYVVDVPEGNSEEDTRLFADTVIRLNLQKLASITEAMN; partner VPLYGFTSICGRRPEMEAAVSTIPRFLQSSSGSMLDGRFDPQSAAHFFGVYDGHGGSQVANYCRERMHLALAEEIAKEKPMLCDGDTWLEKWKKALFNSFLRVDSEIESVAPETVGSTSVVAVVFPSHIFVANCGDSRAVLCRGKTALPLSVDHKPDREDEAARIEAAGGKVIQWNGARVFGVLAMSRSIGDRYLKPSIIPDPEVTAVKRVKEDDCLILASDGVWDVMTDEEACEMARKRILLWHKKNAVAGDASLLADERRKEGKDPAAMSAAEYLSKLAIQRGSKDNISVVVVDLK
| Substitution | relative binding score |
| --- | --- |
| L169I | 36.1% |
| S140C | -0.719% |
| K116A | 100% |
| H110M | 27.2% |
| I12R | 76.6% |
| F66W | 96.2% |
| Q167M | 96.7% |
| T101N | 39.4% |
| R46Q | 97.9% |
| S59Y | 84.1% |
| Q19C | 94.7% |

Study 3
Target: CCND3, cyclin fold, Cln2 fusion (human)
Method: yeast growth competition, sequencing
Sample: yeast
Setting: weak parent motif
Reference: not given
Direction: higher = stronger binding
Starting sequence: CDKN1B docking peptide (human); PSACRNLFGPVDH; partner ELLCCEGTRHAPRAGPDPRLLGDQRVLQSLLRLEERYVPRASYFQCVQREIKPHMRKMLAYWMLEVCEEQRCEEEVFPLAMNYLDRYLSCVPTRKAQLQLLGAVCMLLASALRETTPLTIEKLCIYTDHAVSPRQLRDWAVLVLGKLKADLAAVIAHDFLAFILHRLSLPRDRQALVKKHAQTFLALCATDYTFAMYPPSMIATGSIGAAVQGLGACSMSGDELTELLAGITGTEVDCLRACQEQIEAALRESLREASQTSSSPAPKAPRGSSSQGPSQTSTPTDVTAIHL
| Substitution | normalised enrichment score |
| --- | --- |
| PSACRNLFGPVMH [D12M] | 0.14 |
| PSMCRNLFGPVDH [A3M] | 0.143 |
| PSWCRNLFGPVDH [A3W] | 0.145 |
| PSACRNLFGPVWH [D12W] | 0.149 |
| PSACRNLFGPFDH [V11F] | 0.09 |
| PSACLNLFGPVDH [R5L] | 0.102 |
| PSACDNLFGPVDH [R5D] | 0.0776 |
| PSACRNLFGPVDC [H13C] | 0.0969 |
| RSACRNLFGPVDH [P1R] | 0.124 |
| PSACRKLFGPVDH [N6K] | 0.197 |
| KSACRNLFGPVDH [P1K] | 0.195 |
| PSACRNLFGPVYH [D12Y] | 0.189 |
| FSACRNLFGPVDH [P1F] | 0.141 |
| PSALRNLFGPVDH [C4L] | 0.11 |

Study 4
Target: Interferon regulatory factor 5, full length, phosphomimetic (IRF5, Homo sapiens, UniProt Q13568-2, residues 1-514, K96S/S451D/S453D/S456D/S462D)
Method: protein-binding microarray
Molecule type: double-stranded DNA, one strand shown
Sample: in vitro
Concentration: 250 nM
Setting: 60-bp whole probe
With: salmon DNA 0.4 mg/ml
Reference: random background probes
Direction: higher = stronger binding
All sequences stand within: GCCTAGCAC … GTCTTGATTCGCTTGACGCTGCTG
| Strand | log fluorescence |
| --- | --- |
| TCACTTATCCCTAATCTCACTGTGCTA | 0.693 z-score |
| GACGGACTGGACGATCGGGACGTGCTA | -0.47 z-score |
| GACTATTTCGGGTTTCGAGACGTGCTA | 5.64 z-score |
| GACGGACTGGACTGTCGGGACGTGCTA | -0.537 z-score |
| GACGCTATCCTTATCCTGACGTGCTAG | -0.0139 z-score |
| TCAATATCCATTATAGAACTGTGCTAG | 0.704 z-score |
| TTGGGACTGCTTCTCCTTTAGTGCTAG | -0.586 z-score |
| TTAGATTTCAGACTCGATTAGTGCTAG | 0.562 z-score |
| GACGGTATCTTTATCCTGACGTGCTAG | 0.311 z-score |
| GACGGTATCGTACTGGGGACGTGCTAG | 0.492 z-score |
| GACGGTATCCTTGTCCTGACGTGCTAG | -0.152 z-score |
| GACGGGATCCTACTGCTGACGTGCTAG | -0.801 z-score |
| TCCCCTCTCTTTCCAACTCTGTGCTAG | 0.282 z-score |
| GACAGTTTCCTACTGCTGACGTGCTAG | 0.604 z-score |
| TTAGGACTGGGTACTGGGTTAGTGCTA | -0.448 z-score |
| CTGGATCTCAGACTGTGTCCGTGCTAG | -0.25 z-score |
| TCAAGGTCCCTTTTCATACTGTGCTAG | 0.217 z-score |
| GACGGACTGGACACTGGAGACGTGCTA | -0.606 z-score |
| GACGGACTGCTGATCCTGACGTGCTAG | -0.554 z-score |

For quick reference, copied from above (study 4):
| Strand | log fluorescence |
| --- | --- |
| GACGGACTGGACGATCGGGACGTGCTA | -0.47 z-score |
| TCAATATCCATTATAGAACTGTGCTAG | 0.704 z-score |
| GACGGTATCGTACTGGGGACGTGCTAG | 0.492 z-score |
